Assay results gathered from unrelated publications.
Each numbered part is a random draw from the data of one study; scales do not carry over between parts. Positions count from the first letter of the parent shown.
Chain of UniProt O23661 (whole entry, looked up): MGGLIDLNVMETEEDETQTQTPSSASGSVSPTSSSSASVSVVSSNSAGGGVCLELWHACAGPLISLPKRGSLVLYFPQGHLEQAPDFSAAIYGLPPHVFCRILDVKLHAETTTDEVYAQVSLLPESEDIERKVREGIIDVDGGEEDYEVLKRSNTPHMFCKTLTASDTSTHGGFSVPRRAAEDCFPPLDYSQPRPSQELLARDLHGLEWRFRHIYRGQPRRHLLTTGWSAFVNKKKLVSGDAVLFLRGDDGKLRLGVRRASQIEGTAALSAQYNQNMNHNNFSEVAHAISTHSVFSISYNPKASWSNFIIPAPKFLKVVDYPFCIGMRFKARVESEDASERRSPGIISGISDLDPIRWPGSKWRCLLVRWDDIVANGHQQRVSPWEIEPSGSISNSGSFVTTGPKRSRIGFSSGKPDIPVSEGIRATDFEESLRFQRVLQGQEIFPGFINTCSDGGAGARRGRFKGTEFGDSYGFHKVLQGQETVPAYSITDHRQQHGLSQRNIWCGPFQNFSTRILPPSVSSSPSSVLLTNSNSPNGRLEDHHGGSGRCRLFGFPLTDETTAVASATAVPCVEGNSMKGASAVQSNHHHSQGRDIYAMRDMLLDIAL
Chain of UniProt P93024 (whole entry, looked up): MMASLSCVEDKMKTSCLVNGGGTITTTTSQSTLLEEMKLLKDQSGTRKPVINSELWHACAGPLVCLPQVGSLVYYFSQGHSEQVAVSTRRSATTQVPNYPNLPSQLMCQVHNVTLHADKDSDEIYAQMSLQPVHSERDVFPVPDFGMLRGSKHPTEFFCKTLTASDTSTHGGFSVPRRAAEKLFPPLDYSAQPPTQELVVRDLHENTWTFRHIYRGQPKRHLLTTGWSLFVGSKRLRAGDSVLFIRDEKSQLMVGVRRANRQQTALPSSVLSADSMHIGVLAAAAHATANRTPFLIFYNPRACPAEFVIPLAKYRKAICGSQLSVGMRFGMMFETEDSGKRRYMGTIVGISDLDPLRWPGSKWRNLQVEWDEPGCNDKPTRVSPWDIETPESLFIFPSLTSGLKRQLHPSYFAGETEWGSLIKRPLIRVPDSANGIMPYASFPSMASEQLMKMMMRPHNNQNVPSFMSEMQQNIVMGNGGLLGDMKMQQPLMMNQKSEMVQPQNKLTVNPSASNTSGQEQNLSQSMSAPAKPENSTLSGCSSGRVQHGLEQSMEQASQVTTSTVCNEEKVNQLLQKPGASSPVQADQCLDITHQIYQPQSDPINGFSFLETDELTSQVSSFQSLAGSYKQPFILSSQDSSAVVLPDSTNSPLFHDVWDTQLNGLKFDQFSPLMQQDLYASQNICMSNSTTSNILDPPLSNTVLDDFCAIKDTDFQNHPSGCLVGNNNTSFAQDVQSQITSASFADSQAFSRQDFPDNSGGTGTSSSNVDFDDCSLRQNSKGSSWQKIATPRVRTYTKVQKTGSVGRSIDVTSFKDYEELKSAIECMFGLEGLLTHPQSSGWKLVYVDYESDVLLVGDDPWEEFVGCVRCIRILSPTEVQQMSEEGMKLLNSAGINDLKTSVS
Chain of UniProt Q94JM3 (whole entry, looked up): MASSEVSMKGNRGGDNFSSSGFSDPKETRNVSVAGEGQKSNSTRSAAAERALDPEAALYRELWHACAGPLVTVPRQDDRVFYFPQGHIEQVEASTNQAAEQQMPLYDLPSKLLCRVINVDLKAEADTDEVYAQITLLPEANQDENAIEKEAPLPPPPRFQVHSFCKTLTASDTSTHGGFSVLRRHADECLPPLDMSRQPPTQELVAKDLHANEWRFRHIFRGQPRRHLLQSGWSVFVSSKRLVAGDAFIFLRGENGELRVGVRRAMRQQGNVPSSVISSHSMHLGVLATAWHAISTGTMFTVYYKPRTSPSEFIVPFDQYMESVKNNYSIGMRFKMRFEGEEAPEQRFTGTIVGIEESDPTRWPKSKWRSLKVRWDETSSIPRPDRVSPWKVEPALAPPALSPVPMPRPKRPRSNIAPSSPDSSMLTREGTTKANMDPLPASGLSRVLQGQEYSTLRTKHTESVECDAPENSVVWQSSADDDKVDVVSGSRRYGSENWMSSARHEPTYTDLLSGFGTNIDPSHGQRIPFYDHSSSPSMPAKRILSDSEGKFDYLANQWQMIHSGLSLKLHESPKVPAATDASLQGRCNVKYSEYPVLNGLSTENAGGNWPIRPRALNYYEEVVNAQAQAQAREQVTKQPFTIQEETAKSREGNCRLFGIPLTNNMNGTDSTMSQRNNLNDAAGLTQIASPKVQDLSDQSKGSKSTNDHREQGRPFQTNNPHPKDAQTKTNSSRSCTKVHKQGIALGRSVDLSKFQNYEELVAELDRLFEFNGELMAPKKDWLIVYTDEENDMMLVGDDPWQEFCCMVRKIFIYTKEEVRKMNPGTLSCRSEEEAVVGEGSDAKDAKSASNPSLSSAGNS
Chain of UniProt Q9FKM7 (whole entry, looked up): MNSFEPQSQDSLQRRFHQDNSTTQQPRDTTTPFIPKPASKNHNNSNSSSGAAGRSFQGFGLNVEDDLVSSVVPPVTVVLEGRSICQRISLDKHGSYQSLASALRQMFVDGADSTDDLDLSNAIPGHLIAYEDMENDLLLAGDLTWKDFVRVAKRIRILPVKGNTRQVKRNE

Set 1
Target: Prothrombin, mature alpha-thrombin (F2, Homo sapiens, UniProt P00734)
Method: aptamer microarray, sandwich
Form: DNA with 2'F-ANA
Sample: in vitro
Tested at: 200 nM
Notes: whole 15-mer aptamer, many near background
Together with: Cy3 exosite-II aptamer, 400 nM
Direction: higher = stronger binding
Oligonucleotide: GGTTGGTGTGGTTGG
| Modification | mean fluorescence intensity [a.u.] |
| --- | --- |
| 2'F-ANA at 3 4 6 8 9 14 15 | 250 |
| 2'F-ANA at 1 6 10 11 12 14 | 50.4 |
| 2'F-ANA at 1 3 4 5 10 13 14 15 | 95.1 |
| 2'F-ANA at 1 2 3 4 5 8 9 11 13 15 | 47.1 |
| 2'F-ANA at 1 2 3 8 10 14 15 | 54.1 |
| 2'F-ANA at 6 7 9 10 11 14 15 | 109 |
| 2'F-ANA at 2 3 11 14 | 437 |
| 2'F-ANA at 5 8 10 | 46.9 |

Set 2
Target: UBE2D3 UBC core domain (UniProt P61077)
Method: yeast two-hybrid
Sample: yeast
Notes: mostly zero background
Relative to: not given
Direction: higher = stronger interaction
B1: RNF170 RING domain (UniProt Q96K19); chain TRQQFYTDMYCPICLHQASFPVETNCGHLFCGACIIAYWRYGSWLGAISCPICRQTVTLLLTVF
B2: UHRF2 RING domain (UniProt Q96PU4); chain CGGDPEKKCHSCSCRVCGGKHEPNMQLLCDECNVAYHIYCLNPPLDKVPEEEYWYCPSCKTDSSEVVKAGER
B3: ARK2C RING domain (UniProt Q6ZSG1); chain EGEESDTDEKCTICLSMLEDGEDVRRLPCMHLFHQLCVDQWLAMSKKCPICRVDIETQLGAD
Target sequence (chain): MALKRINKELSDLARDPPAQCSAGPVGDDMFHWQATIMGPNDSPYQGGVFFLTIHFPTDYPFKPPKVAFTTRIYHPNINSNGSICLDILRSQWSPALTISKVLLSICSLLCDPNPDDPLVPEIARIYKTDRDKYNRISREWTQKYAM
| Molecule | lacZ reporter activity |
| --- | --- |
| B1 (RNF170 RING domain) | 0 |
| EDEVSDNSAECVVCLSDVRDTLILPCRHLCLCNTCADTLRYQANNCPICRLPFRALLQIR (RNF157 RING domain (UniProt Q96PX1)) | 0 |
| B2 (UHRF2 RING domain) | 0 |
| KTLSRFGIQPCSICLGDAKDPVCLPCDHVHCLRCLRAWFASEQMICPYCLTALPDEFSPA (RNF213 RING domain (UniProt Q63HN8)) | 0 |
| B3 (ARK2C RING domain) | 14500 |
| QHHELTSLFECPVCFDYVLPPILQCQAGHLVCNQCRQKLSCCPTCRGALTPSIRNL (SIAH2 RING domain (UniProt O43255)) | 0 |
| YWAMDSTFELCKICAESNKDVKIEPCGHLLCSCCLAAWQHSDSQTCPFCRCEIKGWEAVS (CBLC RING domain (UniProt Q9ULV8)) | 0 |

Set 3
Target: CCNE1, cyclin fold, Cln2 fusion (human)
Method: yeast growth competition, sequencing
Sample: yeast
Notes: strong parent motif
Relative to: not given
Direction: higher = stronger binding
Starting sequence: viral docking peptide; TSVRRALFTGGSD
| Change | normalised enrichment score |
| --- | --- |
| TSVRRLLFTGGSD [A6L] | 2.28 |
| TSVRRANFTGGSD [L7N] | 0.0927 |
| TSVRRALFTGGDD [S12D] | 6.55 |
| TFVRRALFTGGSD [S2F] | 4.48 |
| TSVRRAEFTGGSD [L7E] | 0.0159 |
| TSVRRFLFTGGSD [A6F] | 1.51 |
| TSVRRALFTGGSA [D13A] | 4.83 |
| TVVRRALFTGGSD [S2V] | 2.97 |
| TSVRRALFTGHSD [G11H] | 5.37 |
| TSVRRALFTGGVD [S12V] | 5.55 |
| TSVRRELFTGGSD [A6E] | 3.8 |
| TSKRRALFTGGSD [V3K] | 0.456 |
| TSVPRALFTGGSD [R4P] | 0.621 |
| TSVTRALFTGGSD [R4T] | 1.7 |
| TDVRRALFTGGSD [S2D] | 4.01 |
| TSVRRALFFGGSD [T9F] | 5.16 |
| TSVRRALFTQGSD [G10Q] | 5.56 |
| TSVRRALDTGGSD [F8D] | 0.0105 |
| TSVRRALFTWGSD [G10W] | 3.49 |
| TSVRRALFTGGLD [S12L] | 4.83 |
| TSVRRALFTGGHD [S12H] | 5.45 |
| TSVRRALCTGGSD [F8C] | -0.233 |
| TWVRRALFTGGSD [S2W] | 3.07 |
| TSVRRALFTRGSD [G10R] | 3.92 |
| TSARRALFTGGSD [V3A] | 4.1 |

Set 4
Target: HLA class I histocompatibility antigen, A alpha chain, allele A*80:01 (Homo sapiens, UniProt P04439)
Read-out: peptide-MHC binding
Form: peptide
Tested at: concentration not given
| Molecule | binding |
| --- | --- |
| EVIPYTPAM | inactive |
| TRDHVNLVL | inactive |
| APDGFYPFK | inactive |
| GSEEIKSLY | inactive |

Set 5
Molecule: B4 (IAA32)
Method: two-hybrid
Direction: higher = firmer interaction
B4: IAA32 (Arabidopsis thaliana, UniProt Q8RYC6); chain MDPNTPADFFKGSSKFHTYYSQTKKGGGVIDLGLSLRTIQHETYLPPARMIGLDGYGELIDWSQPSYNSITQLKSEDTGHQRLAQGYYNNEGESRGKYAYVKVNLDGLVVGRKVCLVDQGAYATLALQLNDMFGMQTVSGLRLFQTESEFSLVYRDREGIWRNVGDVPWKEFVESVDRMRIARRNDALLPF
| partner | relative to | positive tests |
| --- | --- | --- |
| ARF5 788-902 (Arabidopsis thaliana, UniProt P93024) | out of 4 tests | 4 |
| ETT (Arabidopsis thaliana, UniProt O23661) | out of 4 tests | 1 |
| IAA33 (Arabidopsis thaliana, UniProt Q9FKM7) | out of 4 tests | 1 |
| ARF2 727-859 (Arabidopsis thaliana, UniProt Q94JM3) | out of 3 tests | 2 |
| IAA34 (Arabidopsis thaliana, UniProt Q9C5X0) | out of 4 tests | 3 |

Set 6
Target: Interferon regulatory factor 7, full length, phosphomimetic (IRF7, Homo sapiens, UniProt Q92985, residues 1-503, S101K/S471D/S472D/S475D/S476D/S477D/S483D/S484D/S487D)
Chain of UniProt Q92985 (whole entry, unmodified, looked up): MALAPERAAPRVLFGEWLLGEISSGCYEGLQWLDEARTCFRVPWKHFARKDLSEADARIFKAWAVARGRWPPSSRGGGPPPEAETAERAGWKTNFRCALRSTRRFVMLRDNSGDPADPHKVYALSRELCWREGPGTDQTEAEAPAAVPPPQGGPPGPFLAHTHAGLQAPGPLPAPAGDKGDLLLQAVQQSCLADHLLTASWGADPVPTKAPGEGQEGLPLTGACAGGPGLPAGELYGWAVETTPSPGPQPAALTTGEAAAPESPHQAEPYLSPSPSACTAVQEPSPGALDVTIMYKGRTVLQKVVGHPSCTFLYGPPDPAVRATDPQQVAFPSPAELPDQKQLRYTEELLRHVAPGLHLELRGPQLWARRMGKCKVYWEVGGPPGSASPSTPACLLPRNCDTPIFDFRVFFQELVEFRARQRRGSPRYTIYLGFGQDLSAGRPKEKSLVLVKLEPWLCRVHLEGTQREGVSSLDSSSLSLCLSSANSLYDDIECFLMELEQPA
Method: protein-binding microarray
Form: double-stranded DNA, one strand shown
Sample: in vitro
Tested at: 250 nM
Notes: 60-bp whole probe
Together with: salmon DNA 0.4 mg/ml
Relative to: random background probes
Direction: higher = stronger binding
Shared flanks, not repeated: GCCTAGCAC … GTCTTGATTCGCTTGACGCTGCTG
| Oligonucleotide | log fluorescence [z-score] |
| --- | --- |
| TTAGGACTGGGGACTAGGTTAGTGCTA | -0.294 |
| TCAAATTTTTTTCTAAGACTGTGCTAG | 0.113 |
| GCAGGTCTGGACCCAGACTCGTGCTAG | -0.55 |
| TCATTTTTTTCTTTAAAACTGTGCTAG | 0.842 |
| CAACTTTTTTTAATTGAGAAGTGCTAG | 0.333 |
| TTACATTTCAGTTCCGATTAGTGCTAG | 1.74 |
| TCATTTCTTTTATTAGTACTGTGCTAG | 1.87 |
| CTCATTCTCTGCTTGCGTCTGTGCTAG | 1.6 |

For quick reference, copied from above (set 3):
| Change | normalised enrichment score |
| --- | --- |
| TSVRRALFFGGSD [T9F] | 5.16 |
| TFVRRALFTGGSD [S2F] | 4.48 |
| TVVRRALFTGGSD [S2V] | 2.97 |
| TSVRRALFTGGHD [S12H] | 5.45 |
| TSKRRALFTGGSD [V3K] | 0.456 |
| TWVRRALFTGGSD [S2W] | 3.07 |
